Measurements from different studies.
Lines come from different studies, so protocols differ. Several values in a cell are separate wells, animals, samples, runs or records. Numbers after ± are the reported error.
Sequence of UniProt P06276 (whole entry, looked up): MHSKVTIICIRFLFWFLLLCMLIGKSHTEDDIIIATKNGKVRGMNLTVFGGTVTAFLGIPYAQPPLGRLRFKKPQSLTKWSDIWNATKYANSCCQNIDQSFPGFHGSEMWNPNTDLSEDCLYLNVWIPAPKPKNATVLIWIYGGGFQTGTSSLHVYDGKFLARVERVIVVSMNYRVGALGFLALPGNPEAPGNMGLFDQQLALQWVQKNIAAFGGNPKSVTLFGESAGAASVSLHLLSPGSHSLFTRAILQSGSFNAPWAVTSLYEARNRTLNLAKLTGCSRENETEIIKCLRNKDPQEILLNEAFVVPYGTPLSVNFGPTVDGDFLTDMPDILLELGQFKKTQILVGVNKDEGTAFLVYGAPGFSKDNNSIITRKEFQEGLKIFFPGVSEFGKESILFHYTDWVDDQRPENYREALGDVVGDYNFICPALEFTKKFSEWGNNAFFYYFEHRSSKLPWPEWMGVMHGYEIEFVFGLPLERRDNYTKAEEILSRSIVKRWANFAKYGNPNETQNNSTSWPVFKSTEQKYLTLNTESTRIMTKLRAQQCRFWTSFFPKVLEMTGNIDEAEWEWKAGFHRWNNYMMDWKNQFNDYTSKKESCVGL

CC(=N)S — viability (THLE-2, 3D culture; MTT; 400 µM, 96 h): 62.2%
O=C(Cc1ccc(Cl)c(Cl)c1)N1CCCCC1CN1CCCC1 (centres unmarked) — IC50 (Plasmodium falciparum; 3D7): 12.6 µM
CCc1ccc(NC(=O)c2cc3c(=O)n4ccccc4nc3n2C)cc1 — viability (Vero; MTT; 0.4 µM, 24 (unit not given)): 93%
N=C(N)NCCC[C@@H](NC(=O)[C@H](Cc1ccccc1)NC(=O)[C@@H](Cc1ccccc1)NC(=O)OCc1ccccc1)C(N)=O — viability (Vero/SLAM cells; CCK-8; 100 µM, 24 h, 1% DMSO): 99.4 ± 2.6%
C[C@@H](O)[C@@H](CO)NC(=O)[C@@H](CCCNC(=N)N)NC(=O)[C@@H]1CCCN1C(=O)[C@@H]1CSSC[C@H](NC(=O)[C@H](Cc2ccccc2)NC(=O)CN2CCN(CC(=O)O)CCN(CC(=O)O)CCN(CC(=O)O)CC2)C(=O)N[C@@H](Cc2ccc(O)cc2)C(=O)N[C@@H](Cc2ccccc2)C(=O)N[C@@H](CCC(N)=O)C(=O)N[C@@H](CC(N)=O)C(=O)N1 [gallium-68 labelled] — tissue uptake (Wistar rat, thyroid; intravenous, 8 MBq, 60 min, group mean): 0.13 %ID/g
Cn1cc2cc(C(F)(F)c3nnc4ccc(-c5cnn(C6CC6)c5)nn34)c(F)cc2n1 — viability (MKN-45; CCK-8; 0.0001 µM, 72 h; baseline: untreated): 99.5% and 99.8% and 99.6%
O=S(=O)(Nc1ccc(-c2n[nH]c(=S)o2)cc1)c1ccc(C(F)(F)F)cc1 — viability (1321N1 astrocytoma; MTT; 100 µM, 24 h): 70% and 70.2%
O=C(Nc1ccc(SSc2ccc(NC(=O)c3ccccc3)cc2)cc1)c1ccccc1 — viability (Jurkat E6-1; WST-8; 10 µM, 24 h; baseline: control): 67.5%
O=C(Nc1ccccc1F)c1cc2c(=O)n3ccccc3nc2n1Cc1ccccc1 — viability (Vero; MTT; 100 µM, 24 (unit not given)): 37.3%
O=C(Nc1cccc(OS(=O)(=O)c2ccc(Cl)cc2)c1)c1ccc2ncccc2c1 — viability (1321N1 astrocytoma; MTT; 100 µM, 24 h): 78.31 ± 0.78%
CC(=O)c1cccc(NC(=O)c2cc3c(=O)n4ccccc4nc3n2C)c1 — viability (Vero; MTT; 25 µM, 24 (unit not given)): 56%
Cc1nn(-c2ccc(Cl)cc2)c2c1C(c1ccc(Br)cc1)C(C#N)=C(N)O2 (centres unmarked) — viability (Vero; MTT; 25 µM): 48.1%
CC(C)C[C@H](NC(=O)[C@H](C)NC(=O)[C@@H](NC(=O)[C@H](CCCNC(=N)N)NC(=O)[C@H](CC(C)C)NC(=O)[C@H](Cc1c[nH]c2ccccc12)NC(=O)[C@@H]1CCCN1C(=O)[C@@H](N)CCCCN)C(C)C)C(=O)N[C@@H](CS)C(=O)N1CCC[C@H]1C(=O)NCC(=O)O — viability (Vero; WST-1; 512 µM, 24 h): 104% and 81.2% and 101%
Cn1c(C(=O)Nc2ccc(Cl)cc2)cc2c(=O)n3ccccc3nc21 — viability (Vero; MTT; 0.4 µM, 24 (unit not given)): 91.2%
O=C/C=C/c1ccccc1 — viability (LS174T; MTT; 3.1 to 50 µg/mL, 48 h, 10% FBS): > 90%
CC1(N2CCC(n3c([C@@H]4CCCNC4)nc4ccccc43)CC2)CCCCCCC1 — IC50 (Cholinesterase (BCHE, Homo sapiens, UniProt P06276); inhibitor): 4.5 ± 0.3 µM
O=C(O)CNC(=O)[C@H](Cc1ccccc1)NC(=O)[C@@H](Cc1ccccc1)NC(=O)OCc1ccccc1 — viability (Vero/SLAM cells; CCK-8; 100 µM, 24 h, 1% DMSO): 96.5 ± 0.7%
CCOC(=O)Nc1ccc(NCc2ccc(F)cc2)nc1N — IC50 (Plasmodium falciparum; 3D7): 3.16 µM
Cc1nn(-c2ccc(Cl)cc2)c2c1C(c1ccc(I)cc1)C(C#N)=C(N)O2 (centres unmarked) — viability (Vero; MTT; 100 µM): 52.9%
Cc1cc(NC(=O)c2cc3c(=O)n4cccc(C)c4nc3n2C)ccc1Br — viability (Vero; MTT; 0.4 µM, 24 (unit not given)): 91.9%
